Assay results from different studies.
Several values in a cell are separate wells, animals, samples, runs or records. Numbers after ± are the reported error.

| SMILES | cell line | assay | system | conditions | how to read | quantity | result |
| --- | --- | --- | --- | --- | --- | --- | --- |
| [Cl-].[Cl-].[Ru+2].c1ccc(-c2ccccn2)nc1.c1ccc(-c2ccccn2)nc1.c1ccc2cc3nc4c5cccnc5c5ncccc5c4nc3cc2c1 | SK-MEL-28 | cell growth, SRB | – | cool white visible light, normoxia | – | TGI | 136 nM |
| O=C(C[Se]C(=O)c1cc2ccccc2[nH]1)Nc1cccc(C(F)(F)F)c1 | NCI60 CNS subpanel | NCI60 five-dose screen | – | – | – | mean TGI | 3020 nM |
| COc1cc(N(C)CCN(C)C)c(NC(=O)/C=C/c2ccc(C(C)=O)cc2)cc1Nc1nccc(-c2cn(C)c3ccccc23)n1 | NCI-H1975 | cell growth or viability, MTT | – | 0.5 µM, 72 h | – | inhibition | 69% |
| COc1ccccc1-c1ccncc1C(=O)Nc1ccc(OCc2ccc(Cl)cc2)nn1 | DLD-1 parental (BRCA2 WT) | – | – | 20 µM, single run | relative to: untreated | colony survival | 100% and 92.6% |
| O=C(NC1CCCC1)c1ccnc(N2Cc3cn(Cc4ccc(F)cc4)nc3C2)n1 | HEK293 expressing GluA1 and GluA2 | glutamate excitotoxic cell death, CellTox Green | – | together with: glutamate | – | IC50 | 24 nM |
| CC1(C)CC(=O)C2=C(C1)Oc1ccc3ccccc3c1C2c1c[nH]c2ccccc12 (stereo not shown) | 3T3-L1 preadipocytes | adipogenesis, Oil Red O staining | – | IC20, 14 days, single replicate | – | lipid content | 1.07 OD492 |
| CN1CCCNC(=O)c2cccc(c2)C(=O)NCCCN(C)CCCNc2cccc3c2C(=O)c2cccc(c2C3=O)NCCC1 | SAS | RNA-Seq, refers to: WDR61 mRNA | – | 1 µM, 24 h | relative to: untreated cells | log2 fold change | -3.39 |
| Cn1ncc2cc(-c3cncc(Cl)c3N3CCC4(CCNC4=O)CC3)ccc21 | LS174T | gene expression, microarray, refers to: NCOA5 mRNA | – | concentration not given, 24 h | relative to: untreated cells | log2 fold change | -2.12 |
| CCOC(=O)c1ccc(NC(=O)C(C#N)=C2C(=O)c3ccccc3C2=O)cc1 | HepG2 | cell growth or viability, MTT | – | 50 µM, 24 h | – | viability | 37.9% |
| CNS(=O)(=O)Nc1nccc(Cc2c(C)c3ccc(Oc4ncccc4F)cc3oc2=O)c1F | NKM-1 | cell viability, CellTiter-Glo | – | 7 days | – | IC50 | > 1000 nM |
| CCC(=CCc1c(O)cc2c(c1O)C(=O)CC(c1ccc(O)cc1)O2)CC (stereo not shown) | HeLa | cell growth or viability, MTT | – | 12.5 µM, 48 h | – | inhibition | 52.2% |
| C=C(NC(=O)c1csc(-c2ccc(NC(=O)CCCCCBr)cc2)n1)C(=O)NC(=C)C(=O)OC | H-MESO-1 | cell viability, crystal violet | – | 6 h exposure, 48 h total | – | EC50 | 960 nM |
| Cc1ncsc1-c1ccc(C(C)NC(=O)C2CC(O)CN2C(=O)C(NC(=O)CCCCCCCCCCN2CCCC(Nc3ncc(Cl)c(Nc4ccccc4S(=O)(=O)C(C)C)n3)C2)C(C)(C)C)cc1 (stereo not shown) | 22Rv1 | RNA-seq, refers to: PKDREJ mRNA | – | concentration not given | relative to: DMSO | log2 fold change | -3.95 |
| C=CC(=O)Oc1ccc(OC)c(-c2c[nH]c3ncc(-c4cncc(C(=O)N(C)C)c4)cc23)c1 | Ba/F3 BCR-ABL wild type | cell proliferation | – | 72 h | – | GI50 | 58.4 ± 5.8 nM |
| O=C(N1CCCC1)n1cc(-c2ccc(-c3ccccc3)cc2)nn1 | mouse T cells | N-terminal labelling proteomics, refers to: CCDC97 N-terminal peptides | – | 0.001 µM, 6 h | relative to: DMSO | SILAC ratio | 1.26 |
| COc1cccc(OC)c1-c1cc(C(=O)NC2(C(=O)O)C3CC4CC(C3)CC2C4)nn1-c1ccc(C(=O)N(C)CCCN(C)C(=O)[C@H](CCCCNC(=O)[C@H](CC(C)C)NC(=O)C2OC2C(=O)O)NC(=O)CN2CCN(CC(=O)[O-])CCN(CC(=O)[O-])CCN(CC(=O)[O-])CC2)cc1C(C)C.[177Lu+3] (mixture of isomers) | HT-29 | – | – | concentration not given, 60 min | relative to: added activity | surface-bound fraction | 3.56 ± 0.46% |
| O=C(C[Se]C(=O)c1ccc2ccccc2c1)Nc1cccc(C(F)(F)F)c1 | NCI60 leukaemia subpanel | NCI60 five-dose screen | – | – | – | GI50 | 1720 nM |

| SMILES | cell line | assay | system | conditions | how to read | quantity | result |
| --- | --- | --- | --- | --- | --- | --- | --- |
| CCc1n(CC(=O)O[C@@H]2C[C@H](C)CC[C@H]2C(C)C)c2ccccc2[n+]1C | HTS cells (mouse) | gene microarray, refers to: COX6A2 | – | 1 µM, 6 h, unit not given | relative to: untreated | mRNA level | 1.6 |
| CCN(C(=O)c1cc(F)ccc1Oc1nncnc1N1CCC2(C1)CN([C@H](CCCN(C)CCOC)C(C)C)C2)C(C)C | HCT-15 | cell growth or viability | – | 7 days | – | GI50 | > 10000 nM |
| O=C(C[Se]C(=O)c1ccc2ccccc2n1)Nc1cccc(C(F)(F)F)c1 | NCI60 melanoma subpanel | total growth inhibition, inhibitor | – | five-dose | – | mean TGI | 3720 nM |
| CCN(CC)CC(=O)Nc1cccc(-n2cc(-c3ccc4ccc(-c5cn(-c6cccc(NC(=O)CN(CC)CC)c6)nn5)cc4c3)nn2)c1 | RCC4 | PCR angiogenesis array, refers to: COL4A3 | – | 5 x IC50, 2 h, normoxia | relative to: untreated | fold regulation | -1.04 |
| CC1(C)CC[C@@]2(CO)C(=C3C=C[C@@H]4[C@@]5(C)CC[C@H](O)[C@@](C)(CO)[C@@H]5CC[C@@]4(C)[C@]3(C)C[C@@H]2O)C1 | HepG2 | Western blot, refers to: PPAR-α | – | 7.5 µM, unit not given, together with: ethanol | relative to: β-actin | protein level | 2.22 and 2.19 and 1.23 |
| COc1ccc2c(c1)C(n1nnc3ccccc31)C1=C(CCCC1=O)O2 (stereo not shown) | 3T3-L1 preadipocytes | adipogenesis, Oil Red O staining | – | IC20, 14 days, single replicate | – | lipid content | 0.702 OD492 |
| COc1cc(N(C)CCN(C)C)c(NC(=O)/C=C/c2ccc3c(c2)OCO3)cc1Nc1nccc(-c2cn(C)c3ccccc23)n1 | NCI-H1975 | cell growth or viability, MTT | – | 0.5 µM, 72 h | – | inhibition | 73.7% |
| CO[C@@H]1[C@@H](OC(N)=O)[C@@H](O)[C@H](Oc2ccc3c(O)c(NC(=O)c4ccc(O)c(CC=C(C)C)c4)c(=O)oc3c2C)OC1(C)C | HCT-116 BRCA2 wild-type | – | – | 150 µM, mean of replicates A, B | relative to: untreated | colony survival | 86.9% |
| Cc1c(Cl)cccc1Nc1ccccc1C(=O)[Se]CC(=O)Nc1cccc(C(F)(F)F)c1 | NCI60 melanoma subpanel | cell growth, inhibitor | – | five-dose | – | GI50 | 1550 nM |
| CC(C)c1ccc(N(C)c2ccc3c(c2)OCC[C@H]3CNc2cnccc2C(=O)O)cc1 | HS852T | cell viability, CellTiter-Glo | skin | 7 days | – | IC50 | ≥ 10000 nM |
| CC(=O)NCCCN(C)CCCNc1cccc2c1C(=O)c1cccc(NCCCN(C)CCCNC(C)=O)c1C2=O | SAS | RNA-Seq, refers to: FNDC8 mRNA | – | 1 µM, 24 h | relative to: untreated cells | log2 fold change | -2.5 |
| COC(=O)c1cc(NC2=NC(=O)C(=Cc3ccc(N(C)C)cc3)S2)ccc1OC(C)=O | MCF7 | GC-MS, refers to: Serine | – | 1 µM | relative to: DMSO | metabolite level | -0.9 fold change |
| C=CC(=O)Nc1cc(Nc2nccc(-c3c(-c4ccc5c(c4)OCCO5)n(C)c4ccccc34)n2)c(OC)cc1N(C)CCN(C)C | NCI-H1975 | cell growth or viability, MTT | – | 0.5 µM, 72 h | – | inhibition | 68.3% |
| O=C(C[Se]C(=O)c1ccccc1Nc1ccccc1)Nc1cccc(C(F)(F)F)c1 | NCI60 melanoma subpanel | total growth inhibition, inhibitor | – | five-dose | – | mean TGI | 3190 nM |
| COc1cc(N(C)CCN(C)C)c(NC(=O)/C=C/c2cccc3ccccc23)cc1Nc1nccc(-c2cn(C)c3ccccc23)n1 | NCI-H1975 | cell growth or viability, MTT | – | 0.5 µM, 72 h | – | inhibition | 55.4% |
| COCCCCCNc1nc(NCCCCCCN(C)C)c2cc(NC(=O)/C=C/CN(C)C)ccc2n1 | MCF7 | CellTiter-Glo | – | 0.3906 µM, 72 h, unit not given | relative to: DMSO-treated cells | viability | 1.08 and 1.01 and 0.818 |
| O=C(C[Se]C(=O)c1cc2ccccc2s1)Nc1cccc(C(F)(F)F)c1 | HCC 2998 | cell growth or viability, SRB | – | – | – | GI50 | 460 nM |

Some of these lines once more:
| SMILES | cell line | assay | system | conditions | how to read | quantity | result |
| --- | --- | --- | --- | --- | --- | --- | --- |
| COc1ccc2c(c1)C(n1nnc3ccccc31)C1=C(CCCC1=O)O2 (stereo not shown) | 3T3-L1 preadipocytes | adipogenesis, Oil Red O staining | – | IC20, 14 days, single replicate | – | lipid content | 0.702 OD492 |
| CCN(C(=O)c1cc(F)ccc1Oc1nncnc1N1CCC2(C1)CN([C@H](CCCN(C)CCOC)C(C)C)C2)C(C)C | HCT-15 | cell growth or viability | – | 7 days | – | GI50 | > 10000 nM |
| CC(=O)NCCCN(C)CCCNc1cccc2c1C(=O)c1cccc(NCCCN(C)CCCNC(C)=O)c1C2=O | SAS | RNA-Seq, refers to: FNDC8 mRNA | – | 1 µM, 24 h | relative to: untreated cells | log2 fold change | -2.5 |
